Values quoted from earlier work as cited in several papers.
Each line is one published result; not all experiments were run side by side. Converted amounts (≈) assume the structure as drawn.
Sequence of UniProt P23458 (whole entry, looked up): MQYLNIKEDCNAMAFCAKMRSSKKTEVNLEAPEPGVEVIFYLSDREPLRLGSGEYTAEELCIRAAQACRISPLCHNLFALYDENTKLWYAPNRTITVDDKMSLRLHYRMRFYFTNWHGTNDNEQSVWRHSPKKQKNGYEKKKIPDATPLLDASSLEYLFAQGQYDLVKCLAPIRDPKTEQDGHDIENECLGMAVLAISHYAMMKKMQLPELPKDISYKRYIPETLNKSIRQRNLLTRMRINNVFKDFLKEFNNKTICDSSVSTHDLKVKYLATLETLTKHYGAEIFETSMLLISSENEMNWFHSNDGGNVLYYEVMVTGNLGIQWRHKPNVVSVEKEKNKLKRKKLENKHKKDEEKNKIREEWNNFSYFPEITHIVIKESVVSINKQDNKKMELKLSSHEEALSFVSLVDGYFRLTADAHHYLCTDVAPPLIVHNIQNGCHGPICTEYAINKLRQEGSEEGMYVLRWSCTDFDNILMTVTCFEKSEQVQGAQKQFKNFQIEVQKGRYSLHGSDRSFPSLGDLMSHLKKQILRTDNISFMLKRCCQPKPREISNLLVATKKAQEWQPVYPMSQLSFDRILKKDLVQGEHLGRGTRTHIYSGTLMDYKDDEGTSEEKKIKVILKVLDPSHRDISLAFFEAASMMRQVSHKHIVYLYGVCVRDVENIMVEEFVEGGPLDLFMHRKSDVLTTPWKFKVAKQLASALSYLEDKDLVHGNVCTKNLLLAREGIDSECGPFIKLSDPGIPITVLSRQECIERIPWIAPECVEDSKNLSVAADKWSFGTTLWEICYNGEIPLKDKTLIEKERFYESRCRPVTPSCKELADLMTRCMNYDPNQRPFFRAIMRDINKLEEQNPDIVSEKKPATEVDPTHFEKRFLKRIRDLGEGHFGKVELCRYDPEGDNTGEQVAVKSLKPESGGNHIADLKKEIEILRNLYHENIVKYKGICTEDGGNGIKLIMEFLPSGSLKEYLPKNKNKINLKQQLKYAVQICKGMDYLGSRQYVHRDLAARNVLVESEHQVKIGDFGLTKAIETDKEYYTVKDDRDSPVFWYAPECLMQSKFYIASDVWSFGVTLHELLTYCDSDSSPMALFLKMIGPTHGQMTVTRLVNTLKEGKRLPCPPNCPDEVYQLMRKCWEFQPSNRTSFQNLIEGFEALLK

CC(C)(O/N=C(\C(=O)N[C@@H]1C(=O)N2C(C(=O)[O-])=C(C[n+]3ccccc3)CS[C@H]12)c1csc(N)n1)C(=O)O
MIC (Acinetobacter baumannii; clinical isolate RKI-No_584/16): 4 µg/mL (≈ 7.32 µM)

CC[C@H](C)[C@H](NC(=O)CN)C(=O)NCC(=O)N[C@@H](CCCCN)C(=O)N[C@@H](Cc1ccccc1)C(=O)N[C@@H](CC(C)C)C(=O)N[C@@H](CCCCN)C(=O)N[C@@H](CCCCN)C(=O)N[C@@H](C)C(=O)N[C@@H](CCCCN)C(=O)N[C@@H](CCCCN)C(=O)N[C@@H](Cc1ccccc1)C(=O)NCC(=O)N[C@@H](CCCCN)C(=O)N[C@@H](C)C(=O)N[C@@H](Cc1ccccc1)C(=O)N[C@H](C(=O)N[C@@H](CCCCN)C(=O)N[C@H](C(=O)N[C@@H](CC(C)C)C(=O)N[C@@H](CCCCN)C(=O)N[C@@H](CCCCN)C(N)=O)[C@@H](C)CC)C(C)C
MIC (Acinetobacter baumannii): 2 µg/mL (≈ 0.807 µM)

CCc1c(Cl)c(O)c(Cl)c(O)c1C(=O)O[C@H]1[C@H](O)[C@H](OC)[C@H](OC/C2=C\C=C\C[C@H](O)/C(C)=C/[C@H](CC)[C@@H](O[C@@H]3OC(C)(C)[C@@H](OC(=O)C(C)C)[C@H](O)[C@@H]3O)/C(C)=C/C(C)=C/C[C@@H]([C@@H](C)O)OC2=O)O[C@@H]1C
MIC (Acinetobacter baumannii; ATCC 17961): > 128 µg/mL

Nc1cc(C(F)(F)F)c(-c2nc(N3CCOCC3)nc(N3CCOCC3)n2)cn1
remaining activity (Tyrosine-protein kinase JAK1, JH1 kinase domain (JAK1, Homo sapiens, UniProt P23458); enzyme activity; 10 µM; baseline: untreated): 80%

CNC(C)C1CCC(N)C(OC2C(N)CC(N)C(OC3OCC(C)(O)C(NC)C3O)C2O)O1 (stereo not shown)
MIC (Acinetobacter baumannii; clinical isolate RKI-No_70/16): > 8 µg/mL

FC(F)(F)c1ccc(Oc2ccc(-c3noc(-c4ccc5[nH]ccc5c4)n3)cc2)cc1
MIC (Acinetobacter baumannii; ATCC 17961): > 128 µg/mL

O=[N+]([O-])c1ccc(O)c2ncccc12
MBEC (Acinetobacter baumannii; biofilm eradication; 1794): 46.9 µM

CC[C@H](C)CCCCC(=O)N[C@@H](CCN)C(=O)N[C@H](C(=O)N[C@@H](CCN)C(=O)N[C@H]1CCNC(=O)[C@H]([C@@H](C)O)NC(=O)[C@H](CCN)NC(=O)[C@H](CCN)NC(=O)[C@H](CC(C)C)NC(=O)[C@@H](Cc2ccccc2)NC(=O)[C@H](CCN)NC1=O)[C@@H](C)O
MIC (Acinetobacter baumannii; usual clinical range): 0.25 to 1 µg/mL (≈ 0.208 to 0.831 µM)

Oc1ccc(-c2nc(-c3ccc(OC4CCCC4)cc3)no2)cc1
MIC (Acinetobacter baumannii; ATCC 17961): > 128 µg/mL

CC1(C)S[C@@H]2[C@H](NC(=O)[C@H](N)c3ccccc3)C(=O)N2[C@H]1C(=O)O
MIC (Acinetobacter baumannii; clinical isolate RKI-No_596/16): > 16 µg/mL
